Assay results pooled from the literature.
Compare with care: the assays were run in different laboratories. Several values in a cell are separate wells, animals, samples, runs or records. Numbers after ± are the reported error.

Amino acid sequences for entries named in this document (tags omitted).
UniProt Q16539, whole entry: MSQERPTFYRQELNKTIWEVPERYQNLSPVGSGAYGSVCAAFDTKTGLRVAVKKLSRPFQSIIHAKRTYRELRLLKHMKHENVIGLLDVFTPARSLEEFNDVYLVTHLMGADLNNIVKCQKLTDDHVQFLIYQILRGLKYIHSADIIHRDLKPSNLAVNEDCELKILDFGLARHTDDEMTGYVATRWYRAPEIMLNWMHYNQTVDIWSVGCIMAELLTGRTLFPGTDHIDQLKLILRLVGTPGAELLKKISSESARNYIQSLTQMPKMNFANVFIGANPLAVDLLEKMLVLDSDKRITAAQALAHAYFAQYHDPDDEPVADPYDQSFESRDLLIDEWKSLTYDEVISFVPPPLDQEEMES

SMILES | target or system | assay | system | setting | scale | quantity | value
N#Cc1c(-c2ccc(Cl)cc2Cl)n(-c2nc(-c3ccc(Cl)cc3)c3c(NC(=O)c4ccccc4)nnc-3[nH]2)[nH]c1=O | CCRF-CEM | NCI60 SRB | – | 10 µM | – | cell growth | 30.1%
CN(C)CCNC(=O)c1cc([N+](=O)[O-])cc2ccc(-c3ccccc3)nc12 | K562 | cytotoxicity, XTT | – | 96 h | – | IC50 | 1800 ± 1600 nM
CC(C)CC(NC(=O)C(Cc1ccccc1)NC(=O)c1cnc(C(=O)NC(Cc2ccccc2)C(=O)NC(CC(C)C)B(O)O)cn1)B(O)O (centres unmarked) | proteasome (human) | trypsin-like activity, inhibitor, Proteasome-Glo | MM1.S | 24 h | – | IC50 | > 18 nM
CC(C)C[C@H](NC(=O)[C@H](C)NC(=O)[C@H](CCCNC(=N)N)NC(=O)[C@H](CCCNC(=N)N)NC(=O)[C@H](CCCNC(=N)N)NC(=O)[C@H](C)NC(=O)[C@H](CC(C)C)NC(=O)[C@H](CCCNC(=N)N)NC(=O)[C@H](CO)NC(=O)[C@H](CCCCN)NC(=O)[C@H](CO)NC(=O)Cn1cc(COC(=O)[C@]2(C)C=C(C(=O)OC(C)(C)C)C(=O)CC2)nn1)C(=O)O | Mitogen-activated protein kinase 14 (MAPK14, Homo sapiens, UniProt Q16539) | enzyme activity, inhibitor, D-SENSOR kinase | – | 22.22 µM, unit not given | reference: untreated | remaining activity | 0.017 and 0.0159 and 0.00584
Cc1c(Cn2c(C)nc3c(C(=O)O)cc(N4CCOCC4)cc32)cccc1C(F)(F)F | C4-2B | no effect, Western blot | – | 5 µM | – | CDK6 protein level | no effect
CC/C=C\C/C=C\CCC/C=C/C=C/C=C\CCCC(=O)O | NALM-6 | flow cytometry | – | 37.5 µM, 24 h | – | S phase cells | 37.1%
C=C(C)C(=O)Nc1ccc(-c2c(-c3ccc(Oc4nccc(C)n4)c(F)c3)c3c(N)ncnc3n2C)cc1 | EFM-19 | cell growth, CellTiter-Glo | – | 120 h, unit not given | reference: untreated growth rate, higher = stronger inhibition | area over GR curve | 0.307
CC(=O)NCCCC[C@H](NC(=O)[C@H](CCCNC(=N)N)NC(=O)[C@H](C)NC(=O)[C@@H](NC(=O)[C@H](CCC(N)=O)NC(=O)[C@H](CCCCN)NC(=O)[C@@H](NC(=O)[C@H](CCCNC(=N)N)NC(=O)[C@H](C)N)[C@@H](C)O)[C@@H](C)O)C(=O)N[C@@H](CO)C(=O)N[C@H](C(=O)NCC(=O)O)[C@@H](C)O | human MORF PHD1/2 F287A | binding, NMR titration | – | 298 K | – | interaction | inhibited
CN(C)CCNC(=O)c1cccc2ccc(-c3ccc(-c4ccccc4)cc3)nc12 | MDA-MB-468 | protection from CB1954/NRH toxicity | – | 3 h, together with: 100 µM CB1954 plus 100 µM NRH | – | IC50 | 380 ± 270 nM
CCOC(=O)c1c(-c2ccc(Cl)cc2Cl)n(-c2nc(-c3ccc(Cl)cc3)c3c(NC(=O)c4ccccc4)nnc-3[nH]2)[nH]c1=O | A498 | SRB | – | – | – | GI50 | 1050 nM
CC[C@H](C)[C@H](NC(=O)[C@@H]1CCCN1C(=O)[C@H](Cc1c[nH]cn1)NC(=O)[C@@H](NC(=O)[C@H](Cc1ccc(O)c([125I])c1)NC(=O)[C@@H](NC(=O)[C@H](CCCNC(=N)N)NC(=O)CNC)C(C)C)[C@@H](C)CC)C(=O)O | AT2 receptor, human | saturation binding | H295R | concentration not given, together with: losartan 10 µM | – | binding | not detected

A few entries again:
SMILES | target or system | assay | system | setting | scale | quantity | value
CN(C)CCNC(=O)c1cccc2ccc(-c3ccc(-c4ccccc4)cc3)nc12 | MDA-MB-468 | protection from CB1954/NRH toxicity | – | 3 h, together with: 100 µM CB1954 plus 100 µM NRH | – | IC50 | 380 ± 270 nM
